Results pooled from the literature.
Each numbered part is a random draw from the data of one study; scales do not carry over between parts. Positions count from the first letter of the parent shown.

Set 1
Target: CCND1, cyclin fold, Cln2 fusion (human)
Technique: yeast growth competition, sequencing
Sample: yeast
Notes: weak parent motif
Relative to: not given
Reading: higher = stronger binding
Parent: viral docking peptide; CKVKRKLFGSENI
`CKVKRKLAGSENI [F8A]`: “normalised enrichment score” 0.00921.
For `CKVKRKLFGAENI [S10A]`, “normalised enrichment score” read 0.456.
`CAVKRKLFGSENI [K2A]`: “normalised enrichment score” 0.586.
`CKVKRKLLGSENI [F8L]`: “normalised enrichment score” 0.14.
`CKAKRKLFGSENI [V3A]` — result for “normalised enrichment score”: 0.527.
For `CKVKRKAFGSENI [L7A]`, “normalised enrichment score” read 0.0101.
`CKVKRKLFGSANI [E11A]` — result for “normalised enrichment score”: 0.658.

Set 2
Target: UDP-N-acetylglucosamine--peptide N-acetylglucosaminyltransferase 110 kDa subunit (OGT, Homo sapiens, UniProt O15294)
Sequence of UniProt O15294 (whole entry, looked up): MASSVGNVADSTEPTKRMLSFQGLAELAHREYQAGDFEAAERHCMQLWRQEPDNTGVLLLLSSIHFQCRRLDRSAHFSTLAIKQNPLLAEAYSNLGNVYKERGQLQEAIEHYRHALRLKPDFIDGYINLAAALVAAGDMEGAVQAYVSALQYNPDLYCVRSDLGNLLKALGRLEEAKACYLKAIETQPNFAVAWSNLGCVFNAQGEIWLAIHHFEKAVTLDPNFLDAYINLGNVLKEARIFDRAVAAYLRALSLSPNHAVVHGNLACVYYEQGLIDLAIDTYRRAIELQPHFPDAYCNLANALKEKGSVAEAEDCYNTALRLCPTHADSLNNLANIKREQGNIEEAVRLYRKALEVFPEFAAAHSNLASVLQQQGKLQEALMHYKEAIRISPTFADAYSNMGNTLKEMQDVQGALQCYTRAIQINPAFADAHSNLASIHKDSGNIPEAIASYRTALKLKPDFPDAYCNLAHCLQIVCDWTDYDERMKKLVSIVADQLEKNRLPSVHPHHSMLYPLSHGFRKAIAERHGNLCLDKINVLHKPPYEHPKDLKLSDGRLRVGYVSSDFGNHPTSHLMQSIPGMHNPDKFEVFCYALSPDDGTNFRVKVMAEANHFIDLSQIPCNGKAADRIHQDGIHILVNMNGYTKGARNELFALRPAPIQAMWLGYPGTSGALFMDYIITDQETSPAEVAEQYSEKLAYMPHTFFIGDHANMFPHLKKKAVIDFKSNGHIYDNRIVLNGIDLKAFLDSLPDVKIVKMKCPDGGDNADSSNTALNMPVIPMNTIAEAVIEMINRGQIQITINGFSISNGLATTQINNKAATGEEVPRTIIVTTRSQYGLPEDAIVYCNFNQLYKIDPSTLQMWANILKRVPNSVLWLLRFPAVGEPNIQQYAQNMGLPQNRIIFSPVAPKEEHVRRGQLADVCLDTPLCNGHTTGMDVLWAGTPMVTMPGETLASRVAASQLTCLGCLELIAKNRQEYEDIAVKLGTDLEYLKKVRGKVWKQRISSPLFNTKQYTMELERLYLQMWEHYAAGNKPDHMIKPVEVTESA
Observed: binding
Technique: phage display NGS
Form: peptide
Tested at: concentration not given
Notes: panning round 4
Relative to: input library
`ANKGYYPPVYQIWLG` — result for “enrichment fold change”: 1.67.
For `VAYPNSYMPKYQIST`, “enrichment fold change” read 1.53.
For `QSNMGYFMPKYRINY`, “enrichment fold change” read 1.85.
Under “enrichment fold change”, `NQYQPQYQIIFAHQ` is recorded as 1.91.

Set 3
Target: vanadate, free oxyanion
Technique: microfluidic competitive inhibition
Sample: in vitro, cell-free expressed
Tested at: not given
Notes: derived from inhibition constants, unchanged parent 676 nM
Reading: lower = stronger binding
Parent: PafA, mature enzyme, eGFP fusion (Elizabethkingia meningoseptica, UniProt Q9KJX5); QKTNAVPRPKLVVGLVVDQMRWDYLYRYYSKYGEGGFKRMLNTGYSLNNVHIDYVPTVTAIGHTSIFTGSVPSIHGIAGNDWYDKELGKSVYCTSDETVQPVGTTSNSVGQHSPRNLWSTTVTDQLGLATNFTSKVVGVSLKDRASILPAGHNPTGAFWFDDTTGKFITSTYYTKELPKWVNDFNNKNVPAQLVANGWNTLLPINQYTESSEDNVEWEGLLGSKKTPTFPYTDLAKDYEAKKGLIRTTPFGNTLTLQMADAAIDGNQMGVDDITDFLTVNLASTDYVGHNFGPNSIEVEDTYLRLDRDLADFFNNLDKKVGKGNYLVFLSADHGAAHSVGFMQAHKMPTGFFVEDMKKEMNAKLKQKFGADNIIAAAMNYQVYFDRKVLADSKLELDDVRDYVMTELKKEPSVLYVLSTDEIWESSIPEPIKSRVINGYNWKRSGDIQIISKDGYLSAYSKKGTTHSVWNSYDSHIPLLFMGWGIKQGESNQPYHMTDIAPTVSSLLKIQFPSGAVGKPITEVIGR
Under “oxyanion analog dissociation constant”, `V279G` is recorded as 4.07 µM.
For `L456G`, “oxyanion analog dissociation constant” read 480 nM.
Under “oxyanion analog dissociation constant”, `P519V` is recorded as 859 nM.
`Y54G`: “oxyanion analog dissociation constant” 875 nM.
`K486V` — result for “oxyanion analog dissociation constant”: 717 nM.

Further values, each from its own experiment
`PhoQ, residues 284 288 289 292 302 303 DDMDFR` gave a fold induction of 0.832 (PhoP, residues 12 14 15 18 19 LHSVQ (Escherichia coli, UniProt P23836); Sort-seq, measured: YFP reporter; E. coli; PhoQ-PhoP variant library, together with: 10 µM Mg2+; relative to: high Mg2+ state, higher = stronger signaling).

A few entries again (set 3):
`K486V` — result for “oxyanion analog dissociation constant”: 717 nM.
`Y54G`: “oxyanion analog dissociation constant” 875 nM.
